# Published values pooled from the literature.
# ± gives the spread as reported.
Compound,assay,system,setting,scale,endpoint,value
CC[C@H]1CC[C@H](c2ccc(-c3ccc(F)c(F)c3)cc2)CC1,,"rat, placenta","1000 ng/mL in perfusate, middle dose, mixture of 21 LCMs",,median placental accumulation,8.07 ng/g
COc1cc2c(cc1OC)C(=O)C(CC1CCN(Cc3ccccc3)CC1)C2 (centres unmarked),Bond-Lader VAS,human subjects,dose not given,baseline: placebo,nausea VAS,-0.02 log(mm)
CC(C)(C(=O)N1CCOc2c(C#N)cncc2C1)C(F)F,,"human, both sexes","oral, 30 mg single dose",,subjects with contact dermatitis TEAE,16.7%
Cc1cccc(CNc2nc(-c3ccccn3)nc3ccccc23)n1,,Japanese Pharmacopoeia disintegration test solution 2,pH 6.8,,kinetic solubility,81 µg/mL
O=C(CSc1nnc(-c2ccncc2)o1)Nc1ccc(F)cc1,,aqueous buffer,pH 7.4,,thermodynamic solubility,161 µM
CCN1/C(=C/C(C)=O)Sc2ccc(F)cc21,,cynomolgus monkey,"oral, 10 mg/kg, 0.5 h post-dose",,QTc interval (Bazett),324 ± 20 ms
O=C(Nc1cnccc1Cl)N1CCN(Cc2ccc3c(c2)OC(F)(F)O3)CC1,multiple ascending dose,young women,"100 mg, treatment-emergent adverse events",,back pain incidence,33.3%
CN(C(=O)n1cnc(-c2cccnc2)c1)[C@H]1CC[C@H](O)CC1,,"rat, hippocampus","oral, 10 mg/kg single dose, 4 h",,tissue concentration,37.6 ± 9.5 ng/g
COC(=O)c1ccc2c(c1)NC(=O)/C2=C(\Nc1ccc(N(C)C(=O)CN2CCN(C)CC2)cc1)c1ccccc1,,"healthy volunteers, plasma","oral, 150 mg, together with: pirfenidone",,AUCinf,230 ng·h/mL
Cn1cc(Nc2nccc(-c3ccc4c(c3)CN(C3COC3)CC[C@H]4NC(=O)c3cn(C(C)(C)C)nn3)n2)cn1,,"human, whole blood","50 mg twice daily, day 7",baseline: pre-dose baseline,NKT cell count change,40.5%
O=C(Nc1nc2cccc(-c3ccc(CN4CCS(=O)(=O)CC4)cc3)n2n1)C1CC1,item: hypercholesterolaemia,human rheumatoid arthritis patients,"oral, 200 mg once daily, 4 weeks, regardless of relatedness",,treatment-emergent adverse events,0%
CN1CCN(c2cccc3c2CCN(C(=O)/C=C/c2c(-n4cnnn4)ccc(Cl)c2F)[C@@H]3C(=O)Nc2ccc(C(=O)O)cc2)C(=O)C1,,healthy human subjects,"intravenous infusion, 25 mg/h, 2 h",,subjects with serious adverse event,0%
N[C@@H]1c2ccccc2OC12CCN(c1cnc3c(N4CCCc5ncccc54)n[nH]c3n1)CC2,,"advanced metastatic solid tumour patients, plasma","oral, 60 mg once daily, cycle 1 day 1, geometric mean",,AUC(0-tau),4410 ng·h/mL
Cl.[2H]C([2H])([2H])CC(=O)c1cnc(NC(=O)C2CC2)cc1Nc1cccc(-c2ncn(C([2H])([2H])[2H])n2)c1OC,geometric mean,human,"oral, 50 mg single dose, fasted, liquid",,AUC(0-inf),4140 ng·h/mL
COc1ccc([C@@H](O)c2cc(-c3ncnc4cc(N5CCOCC5)ccc34)c(F)cc2Cl)nn1,,locally advanced rectal cancer patients,"100 mg, together with: capecitabine and radiotherapy",,fatigue TEAE incidence,83.3%
Nc1ccn([C@@H]2O[C@H](CO)[C@@H](O)C2(F)F)c(=O)n1,HPLC-UV,"human, plasma","800 mg/m^2, mean, after paricalcitol",,clearance,59.4 L/h/m²
C[C@@H](N)C1CCN(S(=O)(=O)c2cccc3cnccc23)CC1,,healthy volunteers,"150 mg, fed",,incidence of limb abscess TEAE,10%
CCCOc1ccc(NC(=O)CN2CCN(C)CC2)cc1-c1nc(CC)c(CC)c(=O)[nH]1,,healthy Chinese men,"10 mg, together with: alcohol 0.5 g/kg",,AUEC(0-4 h) pulse rate,29.5 ± 21.2 h·bpm
c1csc(CNc2cc[nH]n2)c1,alkaline comet,"Hsd:ICR(CD-1) mice, female, liver","oral, 500 mg/kg/day, 3 days",,tail DNA,3.93%
CC#CC(=O)N1CCC[C@H]1c1nc(-c2ccc(C(=O)Nc3ccccn3)cc2)c2c(N)nccn12,population pharmacokinetics,patients,,,apparent clearance (CL/F),134 L/h

# A few entries again:
Compound,assay,system,setting,scale,endpoint,value
Nc1ccn([C@@H]2O[C@H](CO)[C@@H](O)C2(F)F)c(=O)n1,HPLC-UV,"human, plasma","800 mg/m^2, mean, after paricalcitol",,clearance,59.4 L/h/m²
CN(C(=O)n1cnc(-c2cccnc2)c1)[C@H]1CC[C@H](O)CC1,,"rat, hippocampus","oral, 10 mg/kg single dose, 4 h",,tissue concentration,37.6 ± 9.5 ng/g
